Published values from different studies.
Parts stem from different laboratories: compare values within a part only.
UniProt P34947, sequence (whole entry, looked up): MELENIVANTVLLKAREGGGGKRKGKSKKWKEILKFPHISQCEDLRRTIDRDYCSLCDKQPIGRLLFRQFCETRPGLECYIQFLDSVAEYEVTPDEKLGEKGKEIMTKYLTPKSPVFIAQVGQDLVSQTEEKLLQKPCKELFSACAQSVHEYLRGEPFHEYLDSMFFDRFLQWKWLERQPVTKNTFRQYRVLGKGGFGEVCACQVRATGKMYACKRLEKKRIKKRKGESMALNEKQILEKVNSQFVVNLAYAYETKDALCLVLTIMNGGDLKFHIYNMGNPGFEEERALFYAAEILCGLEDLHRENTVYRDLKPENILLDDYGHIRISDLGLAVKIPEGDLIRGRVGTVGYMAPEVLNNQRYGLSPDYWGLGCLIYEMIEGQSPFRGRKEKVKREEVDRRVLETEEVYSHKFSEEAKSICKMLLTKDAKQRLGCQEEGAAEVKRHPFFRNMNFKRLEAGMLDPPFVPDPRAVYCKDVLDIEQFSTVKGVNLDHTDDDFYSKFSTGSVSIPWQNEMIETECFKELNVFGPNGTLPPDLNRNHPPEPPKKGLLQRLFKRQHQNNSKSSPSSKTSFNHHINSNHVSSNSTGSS

Study 1 — target: UBE2R2 UBC core domain (UniProt Q712K3); technique: yeast two-hybrid; medium: yeast; setting: mostly zero background; baseline: not given; reading: higher = stronger interaction
B1: MDM2 RING domain (UniProt Q00987); chain TQDKEESVESSLPLNAIEPCVICQGRPKNGCIVHGKTGHLMACFTCAKKLKKRNKPCPVCRQPIQMIVLTYFP
B2: CBLL1 RING domain (UniProt Q75N03); chain GEKDDTPVHFCDKCGLPIKIYGRMIPCKHVFCYDCAILHEKKGDKMCPGCSDPVQRIEQCT
B3: RNF115 RING domain (UniProt Q9Y4L5); chain TQEQVDMGLECPVCKEDYTVEEEVRQLPCNHFFHSSCIVPWLELHDTCPVCRKSLNGEDSTR
B4: RNF130 RING domain (UniProt Q86XS8); chain DKETDPDFDHCAVCIESYKQNDVVRILPCKHVFHKSCVDPWLSEHCTCPMCKLNILKALGIV
Residues (chain): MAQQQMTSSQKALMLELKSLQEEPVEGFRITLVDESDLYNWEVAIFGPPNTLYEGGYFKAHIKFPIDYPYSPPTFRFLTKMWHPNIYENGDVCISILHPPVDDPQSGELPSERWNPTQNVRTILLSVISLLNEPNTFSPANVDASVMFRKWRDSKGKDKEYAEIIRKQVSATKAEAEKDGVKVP
Sequence | lacZ reporter activity
KITELNPHLMCALCGGYFIDATTIVECLHSFCKTCIVRYLETNKYCPMCDVQVHKTRPLL (PCGF2 RING domain (UniProt P35227)) | 0
AAQLLEEKLTCAICLGLYQDPVTLPCGHNFCGACIRDWWDRCGKACPECREPFPDGAELR (TRIM65 RING domain (UniProt Q6PJ69)) | 0
EDVLSKDAGECAICLEELQQGDTIARLPCLCIYHKGCIDEWFEVNRSCPEHPSD (ZNRF2 RING domain (UniProt Q8NHG8)) | 0
FLSKVEETFQCICCQELVFRPITTVCQHNVCKDCLDRSFRAQVFSCPACRYDLGRSYAMQ (UHRF1 RING domain (UniProt Q96T88)) | 0
B1 (MDM2 RING domain) | 0
B2 (CBLL1 RING domain) | 0
B3 (RNF115 RING domain) | 0
B4 (RNF130 RING domain) | 0

Study 2 — technique: competition protein-binding microarray; form: double-stranded DNA, one strand shown; medium: in vitro; tested at: 2 µM; together with: Cbf1 competitor, 0.05 µM; reading: higher = stronger binding
Target: Phosphate system positive regulatory protein PHO4, full length, GST-tagged (PHO4, Saccharomyces cerevisiae, UniProt P07270, residues 1-312)
Setting: whole 60-bp probe, lowest competitor level
Residues (chain): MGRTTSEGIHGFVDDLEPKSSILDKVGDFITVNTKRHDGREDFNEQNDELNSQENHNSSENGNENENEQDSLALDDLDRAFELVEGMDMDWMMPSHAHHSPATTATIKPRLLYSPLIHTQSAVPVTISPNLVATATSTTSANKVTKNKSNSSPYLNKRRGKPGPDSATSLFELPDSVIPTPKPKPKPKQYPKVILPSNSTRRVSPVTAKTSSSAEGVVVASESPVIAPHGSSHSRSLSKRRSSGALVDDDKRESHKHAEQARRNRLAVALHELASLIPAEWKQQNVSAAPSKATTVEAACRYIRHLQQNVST
Oligonucleotide | fluorescence intensity
TCAGGAATATGAAGGCAGGTGAAATGAAACCAGTCAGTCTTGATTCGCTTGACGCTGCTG | 3430 a.u.
TATTGTTTTCGTTATCGCGTGGCAAGATATCTTGCGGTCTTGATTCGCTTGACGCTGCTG | 8920 a.u.
CTTCTGTAAATTTGTCACCACACTTGACGCGCCCCGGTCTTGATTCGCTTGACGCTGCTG | 4790 a.u.
CTTCTGTAAATTTTTCACGTGCCCTGACGCGCCCCGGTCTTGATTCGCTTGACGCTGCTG | 13300 a.u.
CTAACGAAGGTTTGTCACTGCACTTACAAGCCAAGTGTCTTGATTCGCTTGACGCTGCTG | 3290 a.u.
CTTTCCCGATCTTGTCACCACACTTTAGCACATTTGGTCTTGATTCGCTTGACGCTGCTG | 5080 a.u.
CAGTCAAAAGAACAGCATCGATGTCCAATGGGTCTAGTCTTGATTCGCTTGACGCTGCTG | 3080 a.u.
TGCAGTTTTCTTTCACACGTTCGAAAGCCCCTTTGAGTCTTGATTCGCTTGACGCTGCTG | 8890 a.u.

Study 3 — technique: aptamer microarray, sandwich; form: DNA with 2'F-ANA; medium: in vitro; tested at: 200 nM; together with: Cy3 exosite-II aptamer, 400 nM; reading: higher = stronger binding; oligonucleotide: GGTTGGTGTGGTTGG
Target: Prothrombin, mature alpha-thrombin (F2, Homo sapiens, UniProt P00734)
Setting: whole 15-mer aptamer, many near background
Modification | mean fluorescence intensity [a.u.]
2'F-ANA at 3 5 9 10 12 | 71.1
2'F-ANA at 1 2 3 4 6 7 10 11 12 13 14 | 91.2
2'F-ANA at 2 3 5 6 9 11 12 14 | 48.9
2'F-ANA at 1 3 8 10 11 12 14 15 | 57.8
2'F-ANA at 3 4 5 10 12 13 14 | 131
2'F-ANA at 1 3 4 6 7 10 11 12 15 | 71.6
2'F-ANA at 3 6 9 12 13 14 15 | 532
2'F-ANA at 8 9 11 12 | 793

Single results of other studies
Compound | target | assay | setting | scale | endpoint | value
Nc1ncnc2c1cnn2-c1ccccc1 | G protein-coupled receptor kinase 5 (GRK5, Homo sapiens, UniProt P34947) | enzyme activity, inhibitor | 0.5 µM | baseline: control | remaining activity | 104%

Repeated from above (study 2):
Oligonucleotide | fluorescence intensity
CTTCTGTAAATTTGTCACCACACTTGACGCGCCCCGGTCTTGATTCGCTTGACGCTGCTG | 4790 a.u.
